Published values collected from several papers.
Lines come from different studies, so protocols differ. ± marks the error that the study gave.
Cell line: A549

| Compound | assay | conditions | scale | quantity | result |
| --- | --- | --- | --- | --- | --- |
| CC(C)C[C@@H](NC(=O)[C@@H](C)NC(=O)[C@@H](CC(C)C)NC(=O)[C@@H](CCCCN)NC(=O)[C@@H](CCCCN)NC(=O)[C@@H](CC(C)C)NC(=O)[C@@H](C)NC(=O)[C@H]1CCCN1C(=O)[C@@H](CC(C)C)NC(=O)[C@@H](Cc1c[nH]c2ccccc12)NC(=O)[C@@H](CCCCN)NC(=O)[C@@H](CCCCN)NC(=O)[C@@H](CC(C)C)NC(=O)[C@@H](C)NC(=O)[C@@H](CC(C)C)NC(=O)[C@@H](CC(C)C)NC(=O)[C@@H](C)NC(=O)[C@@H](CC(C)C)NC(=O)[C@@H](CCCCN)NC(=O)[C@H](N)CCCCN)C(=O)N[C@H](CC(C)C)C(=O)N[C@H](C)C(=O)N[C@H](CC(C)C)C(=O)N[C@H](CCCCN)C(=O)N[C@H](CCCCN)C(N)=O | cytotoxicity, MTT | four hours, 37 °C, serum-free medium | – | EC50 | 2.44 ± 0.43 µM |
| CCOC12C(O)C(OC)C3(O)CC(C1C3OC(=O)c1ccccc1)C13C(OC)CCC4(COC)CN(CC)C1C2C(OC)C43 (stereo not drawn) | cell growth or viability, MTT | – | – | IC50 | 12.6 µM |
| CC1=CC[C@]2(C(=O)O[C@H]3OC[C@@H](O)[C@@H](O)[C@@H]3OS(=O)(=O)O)CC[C@]3(C)C(CCC4[C@@]5(C)CC[C@H](O)C(C)(C)C5CC[C@]43C)C2[C@H]1C (stereo partly drawn) | annexin V/PI flow cytometry | concentration not given, 48 h | reference: untreated | apoptotic cells | 32 fold |
| CCCCCCCCCCCCCCCC[P+](c1ccccc1)(c1ccccc1)c1ccccc1 | cell growth or viability, MTT | 72 h | – | GI50 | 0.728 µM |
| O=C(CN1C(=O)S/C(=C\c2ccccc2Br)C1=O)Nc1ccc(C(=O)Nc2ccc(F)cc2)cc1 | MTT | – | reference: IC50 Vero over IC50 A549 | selectivity index | 24.8 |
| CCCc1cc2c(c(OC)c1OC)OCO2 | cell growth or viability, MTT | 72 h | – | GI50 | > 250 µM |
| CC(C)C[C@@H](NC(=O)[C@@H](C)NC(=O)[C@@H](CCCCN)NC(=O)[C@H](N)CCCCN)C(=O)N[C@H](C)C(=O)N[C@H](CCCCN)C(=O)N[C@H](C)C(=O)N[C@H](CC(C)C)C(=O)N[C@H](CCCCN)C(=O)N[C@H](Cc1c[nH]cn1)C(=O)N[C@H](Cc1c[nH]c2ccccc12)C(=O)N[C@H](CC(C)C)C(=O)N1CCC[C@@H]1C(=O)N[C@H](C)C(=O)N[C@H](CC(C)C)C(=O)N[C@H](Cc1c[nH]cn1)C(=O)N[C@H](CCCCN)C(=O)N[C@H](CC(C)C)C(=O)N[C@H](C)C(=O)N[C@H](CCCCN)C(=O)N[C@H](C)C(=O)N[C@H](CC(C)C)C(=O)N[C@H](C)C(=O)N[C@H](CCCCN)C(=O)N[C@H](CCCCN)C(N)=O | cytotoxicity, MTT | four hours, 37 °C, serum-free medium | – | EC50 | 6.5 ± 0.37 µM |
| CCOP(=O)(OCC)OCCCCOC(=O)CC1=C(C)C(=Cc2ccc([S+](C)[O-])cc2)c2ccc(F)cc21 (stereo not drawn) | cell proliferation, BrdU incorporation | IC50, 24 h | – | inhibition | 94% |
| Cc1cccc(-c2cccc(C)n2)n1.[Cl-].[Cl-].[Ru+2].c1ccc(-c2ccccn2)nc1.c1ccc(-c2ccccn2)nc1 | cell growth or viability | 72 h, dark | – | EC50 | > 300 µM |
| CCCCCCCC(=O)SCCC=CC1CC(=O)NCc2nc(cs2)C2=NC(C)(CS2)C(=O)NC(C(C)C)C(=O)O1 (stereo not drawn) | cell growth or viability | – | – | GI50 | > 10 µM |
| COc1c(C)cc2c(c1OC)OCO2 | cell growth or viability, MTT | 72 h | – | GI50 | > 250 µM |
| CC(C)[C@H]1NC(=O)[C@H](CO)NC(=O)c2cc3cc(c2)C(=O)NC[C@H](NC(=O)[C@H](Cc2c[nH]cn2)NC(=O)[C@H](Cc2ccc(C(F)(F)P(=O)(O)O)cc2)NC(=O)[C@@H]2CCCN2C1=O)C(=O)N[C@@H](Cc1ccccc1)C(=O)N[C@@H](Cc1ccc2ccccc2c1)C(=O)N[C@@H](CCCNC(=N)N)C(=O)N[C@@H](CCCNC(=N)N)C(=O)N[C@@H](CCCNC(=N)N)C(=O)N[C@@H](CCCNC(=N)N)C(=O)N[C@H](C(=O)N[C@@H](CCCCN)C(N)=O)CNC3=O | tyrosine phosphorylation increase, anti-pY immunoblot | 2 h | – | lowest effective concentration | 8 nM |
| CC(C)C[C@@H](NC(=O)[C@H]1CCCN1C(=O)[C@@H](CC(C)C)NC(=O)[C@@H](Cc1c[nH]c2ccccc12)NC(=O)[C@@H](CCCCN)NC(=O)[C@@H](CCCCN)NC(=O)[C@@H](C)NC(=O)[C@@H](CC(C)C)NC(=O)[C@@H](C)NC(=O)[C@@H](CC(C)C)NC(=O)[C@@H](C)NC(=O)[C@@H](CC(C)C)NC(=O)[C@@H](CCCCN)NC(=O)[C@H](N)CCCCN)C(=O)N[C@H](C)C(=O)N[C@H](CCCCN)C(=O)N[C@H](CCCCN)C(=O)N[C@H](CC(C)C)C(=O)N[C@H](C)C(=O)N[C@H](CC(C)C)C(=O)N[C@H](C)C(=O)N[C@H](CC(C)C)C(=O)N[C@H](C)C(=O)N[C@H](CCCCN)C(=O)N[C@H](CCCCN)C(N)=O | cytotoxicity, MTT | four hours, 37 °C, serum-free medium | – | EC50 | 3.11 ± 0.57 µM |
| O=C(CN1C(=O)S/C(=C\c2ccccc2)C1=O)Nc1ccc(C(=O)Nc2ccc(F)cc2)cc1 | MTT | – | reference: IC50 Vero over IC50 A549 | selectivity index | 21.9 |
| CCC[P+](c1ccccc1)(c1ccccc1)c1ccccc1 | cell growth or viability, MTT | 72 h | – | GI50 | 0.971 µM |
| Cc1[nH]c(=O)c(CNC(=O)c2ccc(C(F)(F)F)cc2)c2c1CCCC2 | MTT | – | reference: A549 IC50 over M. tuberculosis MIC | selectivity index | > 40 |
| CCCc1cc(OC)c2c(c1)OCO2 | cell growth or viability, MTT | 72 h | – | GI50 | > 250 µM |
| CC(C)C(O)C(NC(=O)[C@H](Cc1ccc(O)cc1)NC(=O)C(Cc1ccc(O)cc1)[N+](C)(C)C)C(=O)N[C@@H](C)C(=O)O (stereo partly drawn) | – | 100 µM | – | antiproliferative activity | inactive |
| COc1cc(C)cc2c1OCO2 | cell growth or viability, MTT | 72 h | – | GI50 | 12.8 µM |
| CC/C=C\C/C=C\C/C=C\C/C=C\C/C=C\C/C=C\CCC(=O)Nc1ccn(C2OC(CO)C(O)C2(F)F)c(=O)n1 (stereo not drawn) | NCI-60 screen | – | – | CC50 | 43.8 µM |
| CCCCCCCCC[P+](c1ccccc1)(c1ccccc1)c1ccccc1 | cell growth or viability, MTT | 72 h | – | GI50 | 0.171 µM |
| CC(C)C[C@@H](NC(=O)[C@@H](C)NC(=O)[C@@H](CCCCN)NC(=O)[C@H](N)CCCCN)C(=O)N[C@H](C)C(=O)N[C@H](Cc1c[nH]cn1)C(=O)N[C@H](C)C(=O)N[C@H](CC(C)C)C(=O)N[C@H](CCCCN)C(=O)N[C@H](CCCCN)C(=O)N[C@H](Cc1c[nH]c2ccccc12)C(=O)N[C@H](CC(C)C)C(=O)N1CCC[C@@H]1C(=O)N[C@H](C)C(=O)N[C@H](CC(C)C)C(=O)N[C@H](CCCCN)C(=O)N[C@H](CCCCN)C(=O)N[C@H](CC(C)C)C(=O)N[C@H](C)C(=O)N[C@H](Cc1c[nH]cn1)C(=O)N[C@H](C)C(=O)N[C@H](CC(C)C)C(=O)N[C@H](C)C(=O)N[C@H](CCCCN)C(=O)N[C@H](CCCCN)C(N)=O | cytotoxicity, MTT | four hours, 37 °C, serum-free medium | – | EC50 | 2.21 ± 0.63 µM |
| COc1cc(C)c(OC)c(OC)c1OC | cell growth or viability, MTT | 72 h | – | GI50 | > 250 µM |
| COc1cc(/C=C(\C#N)C(=O)Nc2nnc(C(F)(F)F)s2)ccc1OC(=O)N1CCN(C(=O)CCCC(=O)NCCCC[C@@H]2NC(=O)[C@@H](Cc3ccc(O)cc3)NC(=O)[C@H](CC(=O)O)NC(=O)CNC(=O)[C@H](CCCNC(=N)N)NC2=O)CC1 | cell growth or viability, MTT | – | – | GI50 | 32 µM |

Some of these lines once more:
| Compound | assay | conditions | scale | quantity | result |
| --- | --- | --- | --- | --- | --- |
| CC(C)C[C@@H](NC(=O)[C@@H](C)NC(=O)[C@@H](CCCCN)NC(=O)[C@H](N)CCCCN)C(=O)N[C@H](C)C(=O)N[C@H](CCCCN)C(=O)N[C@H](C)C(=O)N[C@H](CC(C)C)C(=O)N[C@H](CCCCN)C(=O)N[C@H](Cc1c[nH]cn1)C(=O)N[C@H](Cc1c[nH]c2ccccc12)C(=O)N[C@H](CC(C)C)C(=O)N1CCC[C@@H]1C(=O)N[C@H](C)C(=O)N[C@H](CC(C)C)C(=O)N[C@H](Cc1c[nH]cn1)C(=O)N[C@H](CCCCN)C(=O)N[C@H](CC(C)C)C(=O)N[C@H](C)C(=O)N[C@H](CCCCN)C(=O)N[C@H](C)C(=O)N[C@H](CC(C)C)C(=O)N[C@H](C)C(=O)N[C@H](CCCCN)C(=O)N[C@H](CCCCN)C(N)=O | cytotoxicity, MTT | four hours, 37 °C, serum-free medium | – | EC50 | 6.5 ± 0.37 µM |
| CCOP(=O)(OCC)OCCCCOC(=O)CC1=C(C)C(=Cc2ccc([S+](C)[O-])cc2)c2ccc(F)cc21 (stereo not drawn) | cell proliferation, BrdU incorporation | IC50, 24 h | – | inhibition | 94% |
| CC1=CC[C@]2(C(=O)O[C@H]3OC[C@@H](O)[C@@H](O)[C@@H]3OS(=O)(=O)O)CC[C@]3(C)C(CCC4[C@@]5(C)CC[C@H](O)C(C)(C)C5CC[C@]43C)C2[C@H]1C (stereo partly drawn) | annexin V/PI flow cytometry | concentration not given, 48 h | reference: untreated | apoptotic cells | 32 fold |
